Measured values pooled from the literature.
Numbered parts are unrelated; each lists some results of a single study.

Block 1
Target: Histone acetyltransferase KAT6A, winged helix 1, GST fusion (KAT6A, Homo sapiens, UniProt Q92794, residues 1-85)
Technique: protein binding microarray
Molecule type: double-stranded DNA, one strand shown
Sample: in vitro
Tested at: not given
Setting: 8-mer, flanks averaged, mean of 2 arrays, mostly near background
Reference: not given
Direction: higher = stronger binding
Residues (chain): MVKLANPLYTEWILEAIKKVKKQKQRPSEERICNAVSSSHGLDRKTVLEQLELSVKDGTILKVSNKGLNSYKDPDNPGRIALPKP
With `CCCTTGTC` the E-score was -0.151.
The E-score of `GCCGCAAA` is reported as 0.256.
For `ACAGCTAT`, the E-score was -0.221.
The E-score of `TACCAAGA` is reported as 0.0695.
For `ATGGGTCA`, the E-score was -0.328.
With `AGCAGACC` the E-score was -0.0356.
With `AAAAAACG` the E-score was 0.0462.
`CGGAGGGC` has an E-score of 0.181.
`AAGATAGT` has an E-score of -0.158.
With `CTGCTAAA` the E-score was -0.0514.
With `ACGACGGA` the E-score was 0.272.
The E-score of `ATCAACAA` is reported as -0.113.
For `GCTTGCTA`, the E-score was -0.119.
For `AATCGCGG`, the E-score was 0.263.
The E-score of `TGCGCTAA` is reported as 0.238.
With `GTTAGAAC` the E-score was -0.0617.
`ACTTTTGC` has an E-score of -0.114.
The E-score of `CGTTTTAG` is reported as 0.0264.
With `CCTTAAGA` the E-score was -0.162.
`GCTTGGAC` gave an E-score of -0.0979.
The E-score of `CCTATGAA` is reported as -0.0124.
`AAGCAGCA` gave an E-score of -0.182.
For `AGCGCGTG`, the E-score was 0.321.

Block 2
Target: RING finger protein unkempt homolog, zinc fingers 1-6, GST-SBP tag (UNK, Homo sapiens, UniProt Q9C0B0, residues 30-357)
UniProt Q9C0B0, sequence (30-357, looked up): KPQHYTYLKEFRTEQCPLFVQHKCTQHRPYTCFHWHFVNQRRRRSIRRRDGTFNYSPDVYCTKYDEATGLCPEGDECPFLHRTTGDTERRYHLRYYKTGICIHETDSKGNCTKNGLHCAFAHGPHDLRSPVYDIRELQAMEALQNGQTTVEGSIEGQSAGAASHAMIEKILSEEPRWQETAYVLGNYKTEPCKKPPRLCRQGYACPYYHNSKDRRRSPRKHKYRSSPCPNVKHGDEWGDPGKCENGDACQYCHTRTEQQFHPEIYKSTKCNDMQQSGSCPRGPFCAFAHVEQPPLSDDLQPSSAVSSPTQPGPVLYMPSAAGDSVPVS
Technique: RNA Bind-n-Seq
Molecule type: RNA
Sample: in vitro
Tested at: not given
Setting: RNA with constant flanks, human and mouse sites, ends assumed
Reference: input RNA pool
Direction: higher = stronger binding
Shared flanks, not repeated: GGGAGUUCUACAGUCCGACGAUC … CAACAGAGGAUUGAGCAUCA
With `GCUGAAGGGUAUGUGAUUGGCAGCUGUAUUAAACACAUUCCAAUCGCAGGACGAGAUAUAACAUAUUUUAUUCAGCAACUGCUGAGAGACCGAGAAGUAGGAAUCCCUCCAGAACAAUCC` the bound/input enrichment was 0.128 ratio.
For `UGUGGCUUUAACAUUUUAUGCAACUAUUUAUGAAGACCUCUGUUGUACCUGUAAUAAAUAUAUAGAAAAAGCACAUACUUCGUAUGGUGAGCUUUAUGGUUUUGUGUGUGUGUUGGGGUU`, the bound/input enrichment was 0.648 ratio.
The bound/input enrichment of `AAUGUACAGGAAAGGGAAGCACAGUUUGGAACAACAGCAGAGAUAUAUGCCUAUCGAGAAGAACAGGAUUUUGGAAUUGAGAUAGUGAAAGUGAAAGCAAUUGGAAGACAAAGGUUCAAA` is reported as 0.368 ratio.
The bound/input enrichment of `UCUGUAGGAUGGCCAGCAUCCCGUGGUCCCUUUCAGCUGCUCAGUGCAUCCCUUGCAUCAUUAGUACCCUGUCUUGACAGCUUGAGGUCCUGGCAGUCUAUGUUUGCCCUUUGCUCAGGG` is reported as 0.185 ratio.
For `UUUUUGUACUUUGUAAAAUAUGGAGCCCAUUGUACCUUCAGCUAUUUGAGACUAUACACAGUGCUUCUUUUGUAACUGGAUUACUUUAACUUUCGUGAAGGCAUUACAUUGCCUCACAUU`, the bound/input enrichment was 0.218 ratio.
For `UGUUCCCAGUCACCCUCCCCCACCCCCUCUACCAAGCAGGAUUCUGAUCUUUGGUGUGUUGUGUUAAGACUCUCCCAAGUGGGUCUGGCUGCCCCUUGCCCAUUGCUCACUGGGGACUAC`, the bound/input enrichment was 0.962 ratio.
With `UCAAAAACUGGAGGCUCCUACGGUACUACAUGGGGUGCCUAUGGUUCUAAUUACUCUGGCGACAAAUGUGCAGGCCCUAAUGGCCAAGCCAAUGGUGACACUGUGAAUGCAACUCUAAUG` the bound/input enrichment was 0.119 ratio.
With `GAAAAAGUGUAGCUCAGACCUGUUUUUAUUUGCUCAAUAACUCGACUCAUUUGUAUCUUUUCAGCACUUGAUGUAAGACUGUUUUGUUUUUAUAAAAUACAUGGGGACAAUGCUUUAAGU` the bound/input enrichment was 0.282 ratio.
`UCCCUAAAGAUAAUUGGAAGACUUCAUUGGAUUGAUAGAGAGAAACUGCGUAAUUUCAUUUUAGCAUGUCAAGAUGAAGAAACGGGGGGAUUUGCAGACAGGCCAGGAGAUAUGGUGGAU` has a bound/input enrichment of 0.702 ratio.
With `GAGAGGAUUAGGUUCCAUCCUUUACGUGUUUAAAAAAAAGCAUAAAAACAUUUUAAAAACAUAGAAAAAUUCAGCAAACCAUUUUUAAAGUAGAAGAGGGUUUUAGGUAGAAAAACAUAU` the bound/input enrichment was 61.6 ratio.
For `CACGGGCUGGUCAGUAUGACAUUUAAAGUGGAAAAGCCAGAAUAUUGAGUUAUUUCUUAACAAGUUUCGAGAGAGAAGGGAGCAAGACAAGAGCAAGCAACGGCUAUUAAAUGUCACAAU`, the bound/input enrichment was 0.296 ratio.

Block 3
Target: Ras GTPase-activating protein-binding protein 1, full length (G3BP1, Homo sapiens, UniProt Q13283)
UniProt Q13283, sequence (whole entry, looked up): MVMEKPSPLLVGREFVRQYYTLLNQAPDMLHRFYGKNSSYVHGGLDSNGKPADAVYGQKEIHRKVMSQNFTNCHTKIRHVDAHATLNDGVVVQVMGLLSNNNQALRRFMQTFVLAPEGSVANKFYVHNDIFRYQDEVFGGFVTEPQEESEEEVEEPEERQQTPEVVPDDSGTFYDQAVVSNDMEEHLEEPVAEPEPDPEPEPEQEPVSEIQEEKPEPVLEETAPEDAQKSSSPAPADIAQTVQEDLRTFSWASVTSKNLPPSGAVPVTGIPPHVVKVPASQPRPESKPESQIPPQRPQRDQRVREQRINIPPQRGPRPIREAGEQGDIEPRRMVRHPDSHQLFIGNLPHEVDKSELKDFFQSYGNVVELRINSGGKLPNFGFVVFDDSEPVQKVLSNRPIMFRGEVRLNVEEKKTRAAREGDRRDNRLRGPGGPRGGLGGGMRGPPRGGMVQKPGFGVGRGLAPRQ
Technique: RNA Bind-n-Seq
Molecule type: RNA
Sample: in vitro
Tested at: 200 nM
Setting: whole 134-nt RNA, ends assumed
With: 150 mM LiCl
Reference: input library
Direction: higher = stronger binding
All molecules: 7-deaza-guanosine replaces G
Shared flanks, not repeated: GGGAGUUCUACAGUCCGACGAUC … UGGAAUUCUCGGGUGUCAAGG
With `UAACUUUAGAGGAGGAUCUGAUGGAUAUGGCAGUGGACGUCGAUUUGGGGAUGGCUAUAAUGGGUAUGGAGGAGGACCUGGAGGUGGCAA` the log2 enrichment was -0.0432.
The log2 enrichment of `CUCAAGUCCUGUGCUACACAUCGUAUGUACCGAAUCGGGGAAGGAAGGAAGGGAAAGUAUUAUGUUACGCCGUUCGGAUCUGCACUUCCA` is reported as -0.535.
`CAAGUCCUGUGCUACACAUCGUAUGUACCGAAUCGGUUUGGAAAAAGGUUUUUGGAAAGUAUUAUGUUACGCCGUUCGGAUCUGCACUUC` has a log2 enrichment of -1.55.
The log2 enrichment of `AAGUCCUGUGCUACACAUCGUAUGUACCGAAUCGGUUUUGGGUUUUGGUUUUGGGGAAAGUAUUAUGUUACGCCGUUCGGAUCUGCACUU` is reported as -0.506.
`AAGUCCUGUGCUACACAUCGUAUGUACCGAAUCGGGGUUUUUGGGGAGGGGAGGGGAAAGUAUUAUGUUACGCCGUUCGGAUCUGCACUU` gave a log2 enrichment of 0.856.
The log2 enrichment of `CCUGUGCUACACAUCGUAUGUACCGAAUCGGGGAAAAAGGGGUUUUUUUGGGGUUUGGGGAAAGUAUUAUGUUACGCCGUUCGGAUCUGC` is reported as -1.55.
`UGGCCCUGGUGGCAUGCGGGGAGGAUGAGGUGGCCUCAUGGAUCGUGGUGGUCCCGGUGGAAUGUUCAGAGGUGGCCGUGGUGGAGACAG` gave a log2 enrichment of 0.459.
`CCUCAAGUCCUGUGCUACACAUCGUAUGUACCGAAUCGGGCGGCGGGGCGGGAAAGUAUUAUGUUACGCCGUUCGGAUCUGCACUUCCAG` has a log2 enrichment of 0.306.
`AAGUCCUGUGCUACACAUCGUAUGUACCGAAUCGGGUUUGGGAGGGAAAAAAAGGGAAAGUAUUAUGUUACGCCGUUCGGAUCUGCACUU` gave a log2 enrichment of 0.272.
`CUGUGCUACACAUCGUAUGUACCGAAUCGGGGUUUUUGGGGUUUUUGGGGUUUUUUUGGGGAAAGUAUUAUGUUACGCCGUUCGGAUCUG` gave a log2 enrichment of 1.48.
`CCUGUGCUACACAUCGUAUGUACCGAAUCGGGGUUUUUUUGGGGAAAAAAAGGGGUGGGGAAAGUAUUAUGUUACGCCGUUCGGAUCUGC` gave a log2 enrichment of 0.107.

Block 4
Target: RNA binding protein fox-1 homolog 2, RRM domain, GST-SBP tag (RBFOX2, Homo sapiens, UniProt O43251-10, residues 100-194)
Technique: RNA Bind-n-Seq
Molecule type: RNA
Sample: in vitro
Tested at: 365 nM
Setting: natural RNA segment, single round, ends assumed
Reference: no-protein control
Direction: higher = stronger binding
Shared flanks, not repeated: GGGAGUUCUACAGUCCGACGAUC … UGGAAUUCUCGGGUGCCAA
Construct (chain): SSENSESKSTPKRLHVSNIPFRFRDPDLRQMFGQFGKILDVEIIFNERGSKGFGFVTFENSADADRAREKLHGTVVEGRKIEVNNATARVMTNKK
`GCUUCACGCAGGUUUGGCCUGGGCUUUCACUGUUGGUGAAUUUAGAGUGUCCUUUUAGGUGGGGCGGCUAUUCUAAAAGUGUCUUUCUAUCACUGUUAAGGGGGGGGGAA`: “RBNS enrichment (R)” 0.744.
Under “RBNS enrichment (R)”, `CACCUCCUAUCCCAUUUGAUCUCACGUAAGCUCCAUUCUCCCACACAACUCUGGGCUCUGUUCAGCACUGUCUUCUGUCAGAGGUGCCUUUUCACAAGUAUGGCGGCUUA` is recorded as 0.896.
`AGAAAACUGUAAGCUAACAUUUAAGAUGUUUCUUCUGGAAGGAAAGUGAGCAGGAACAAGUUAUAUUGCCACUGCUGUGGCAAAUUUUGGUGAACUUUUGGGGUCAUUAU` — result for “RBNS enrichment (R)”: 0.492.
For `CAUUUUAUAAUUUCCAUAUUAAUUUCAAAUAUGCUCGUGUUAUUCUUCAGUGAUUUCCACAAUUGUGCAUUUUAUUCUUUGGUUUAAGUACUGAAGCAUAUAAUGAAAGU`, “RBNS enrichment (R)” read 0.814.
`GCUGCAGGGGGUGGGCUGCCUGCCUGCUCUGAGCUCUCUCUUGCACGCUCUCUCUUCUCUCCCAGGCUCUGGCUCAUGCACAUGCAACAGGUGCGUCUGUCUAUAUGUCU` — result for “RBNS enrichment (R)”: 7.86.
For `AUCAUUGGGUCCCCUGAGCUCCAUGAAGGACCCUCUGUUGUCCCCUUGAUGAUUUAUCAGGCAUGAGAGUAGCAGACAGGAUUGCCUUGAGAAACACACAGACAACAACG`, “RBNS enrichment (R)” read 0.297.
For `CAGGACCCCUCAGCUCCCCGGCACUGCAGUCUGCAGAGUUCUCCUGGAGGCAGGGGCUGCUGCCUUGUUUCACCUUCCAUGUCAGGCCAGCCUGUCCCUGAAAGAGAAGA`, “RBNS enrichment (R)” read 1.61.
`GCUCUGAGCCUCCCUUCCCCAUUCCCCAUCCAGCUCCUUUCCCCCUGGGUUUCCUUGGCUUCCUGCAGCAAAUUGGGCAGUUCUCUGCCCCUUGCCUAAAAGCCUGUACC`: “RBNS enrichment (R)” 0.596.
`GUCCUGUAAAUCGUGUAUUCAUGUUGAUGAUUCUUGGAGAUAGGUUUCACUUUUUCCCAGCUGCGUCCACAGGAAAGGGGAGUCGGAUGCCAGCUGCACCCCGCCUGGCU`: “RBNS enrichment (R)” 0.509.
`AUCUAUUGAUGGACUCUACAUCCUAUAUUGUGACAUGUAAGUCCUUUAAAAGGUGAAAAGUAUGAUUUCUUACCACUUAAGUAUGAUUGAUAUGAUCCAACAAAUUUGAU`: “RBNS enrichment (R)” 0.468.
For `AUCACAUUCUAGGAAGCAAUGGCAGGUGACAUCACUAUUAUAAUAGGAACAAUGCAUUCUAAUGGUACAACUGCCAAAACCCACCCUUGGUUUCUGAUGAUUUAUAAGUA`, “RBNS enrichment (R)” read 0.438.
`UAGAAGAUGGACUCUGAAAGACAUUCCAAGAGUGCCGCGGCAGCAUGGGAGCCUCUUAGUGAUUGUGUCAGUAUUAUUGUGGAAGAUUGCCUUUGCUGUUGUAUGUAAAG` — result for “RBNS enrichment (R)”: 8.35.

A few entries again (block 1):
With `CCCTTGTC` the E-score was -0.151.
`CGGAGGGC` has an E-score of 0.181.
With `CCTTAAGA` the E-score was -0.162.
For `ATGGGTCA`, the E-score was -0.328.
